Assay results of several laboratories.
“And” joins repeats or separate records; there may be more than shown. ± gives the spread as reported.
LE1: LE1 (Glycine max, UniProt P05046)
UniProt P05046, sequence (whole entry, looked up): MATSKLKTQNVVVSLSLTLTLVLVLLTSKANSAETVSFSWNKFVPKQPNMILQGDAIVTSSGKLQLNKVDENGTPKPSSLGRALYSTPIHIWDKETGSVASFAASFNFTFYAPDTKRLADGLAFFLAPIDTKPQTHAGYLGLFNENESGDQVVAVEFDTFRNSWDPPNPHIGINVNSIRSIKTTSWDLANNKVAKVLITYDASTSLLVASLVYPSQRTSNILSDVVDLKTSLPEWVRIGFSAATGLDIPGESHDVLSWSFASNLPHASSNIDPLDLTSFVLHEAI
USP51 ZnF-UBD domain: Ubiquitin carboxyl-terminal hydrolase 51, ZnF-UBD domain (USP51, Homo sapiens, UniProt Q70EK9)
UniProt Q70EK9, sequence (whole entry, looked up): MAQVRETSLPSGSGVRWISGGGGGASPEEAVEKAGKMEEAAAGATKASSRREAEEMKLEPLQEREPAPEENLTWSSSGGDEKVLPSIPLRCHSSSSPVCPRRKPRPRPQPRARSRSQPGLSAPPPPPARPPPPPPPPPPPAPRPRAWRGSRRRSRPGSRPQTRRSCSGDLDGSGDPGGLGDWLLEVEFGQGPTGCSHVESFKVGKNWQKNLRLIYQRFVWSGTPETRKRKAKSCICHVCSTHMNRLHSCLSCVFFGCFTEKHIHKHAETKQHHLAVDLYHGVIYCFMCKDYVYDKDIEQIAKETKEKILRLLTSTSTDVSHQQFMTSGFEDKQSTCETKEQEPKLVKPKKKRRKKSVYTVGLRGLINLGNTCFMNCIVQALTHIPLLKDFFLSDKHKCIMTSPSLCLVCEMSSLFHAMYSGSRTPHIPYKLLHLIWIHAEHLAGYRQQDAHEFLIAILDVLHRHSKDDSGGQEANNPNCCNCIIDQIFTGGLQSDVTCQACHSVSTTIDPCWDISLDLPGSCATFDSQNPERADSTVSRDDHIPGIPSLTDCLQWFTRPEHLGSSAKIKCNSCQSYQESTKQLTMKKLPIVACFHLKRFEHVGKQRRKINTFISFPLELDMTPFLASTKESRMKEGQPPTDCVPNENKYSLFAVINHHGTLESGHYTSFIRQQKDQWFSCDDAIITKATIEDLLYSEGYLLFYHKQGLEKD
SYK SH2 domains: Tyrosine-protein kinase SYK, SH2 domains (SYK, Homo sapiens, UniProt P43405)
UniProt P10635, sequence (whole entry, looked up): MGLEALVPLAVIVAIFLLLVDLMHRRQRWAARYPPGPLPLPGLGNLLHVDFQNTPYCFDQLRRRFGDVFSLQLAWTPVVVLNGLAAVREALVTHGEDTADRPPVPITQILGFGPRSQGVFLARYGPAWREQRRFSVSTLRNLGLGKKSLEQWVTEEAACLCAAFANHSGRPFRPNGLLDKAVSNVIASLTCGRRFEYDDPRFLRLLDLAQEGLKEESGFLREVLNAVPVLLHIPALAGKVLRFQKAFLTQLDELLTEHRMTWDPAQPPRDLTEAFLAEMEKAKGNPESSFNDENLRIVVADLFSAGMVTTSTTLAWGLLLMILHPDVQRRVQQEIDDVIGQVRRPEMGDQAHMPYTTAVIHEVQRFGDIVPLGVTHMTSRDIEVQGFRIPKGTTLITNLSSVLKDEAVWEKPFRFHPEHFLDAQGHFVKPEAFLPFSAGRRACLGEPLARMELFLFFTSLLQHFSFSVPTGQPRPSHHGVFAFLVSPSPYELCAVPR
UniProt P49674, sequence (whole entry, looked up): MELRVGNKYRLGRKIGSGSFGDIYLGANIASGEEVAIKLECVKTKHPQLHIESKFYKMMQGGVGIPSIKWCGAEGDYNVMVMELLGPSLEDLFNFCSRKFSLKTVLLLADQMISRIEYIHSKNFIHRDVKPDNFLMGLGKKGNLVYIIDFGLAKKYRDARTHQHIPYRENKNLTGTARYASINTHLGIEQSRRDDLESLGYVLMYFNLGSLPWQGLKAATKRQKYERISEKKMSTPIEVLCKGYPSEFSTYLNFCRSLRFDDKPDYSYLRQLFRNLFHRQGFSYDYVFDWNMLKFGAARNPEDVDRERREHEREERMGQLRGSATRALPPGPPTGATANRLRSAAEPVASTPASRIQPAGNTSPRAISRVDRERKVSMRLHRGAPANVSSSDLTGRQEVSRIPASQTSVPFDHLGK
UniProt P0DW57, sequence (whole entry, looked up): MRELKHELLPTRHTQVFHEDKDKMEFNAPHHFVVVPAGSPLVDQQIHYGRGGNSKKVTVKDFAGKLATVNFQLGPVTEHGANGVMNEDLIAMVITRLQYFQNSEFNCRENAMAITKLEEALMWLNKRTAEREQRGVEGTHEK
UniProt Q16620, sequence (whole entry, looked up): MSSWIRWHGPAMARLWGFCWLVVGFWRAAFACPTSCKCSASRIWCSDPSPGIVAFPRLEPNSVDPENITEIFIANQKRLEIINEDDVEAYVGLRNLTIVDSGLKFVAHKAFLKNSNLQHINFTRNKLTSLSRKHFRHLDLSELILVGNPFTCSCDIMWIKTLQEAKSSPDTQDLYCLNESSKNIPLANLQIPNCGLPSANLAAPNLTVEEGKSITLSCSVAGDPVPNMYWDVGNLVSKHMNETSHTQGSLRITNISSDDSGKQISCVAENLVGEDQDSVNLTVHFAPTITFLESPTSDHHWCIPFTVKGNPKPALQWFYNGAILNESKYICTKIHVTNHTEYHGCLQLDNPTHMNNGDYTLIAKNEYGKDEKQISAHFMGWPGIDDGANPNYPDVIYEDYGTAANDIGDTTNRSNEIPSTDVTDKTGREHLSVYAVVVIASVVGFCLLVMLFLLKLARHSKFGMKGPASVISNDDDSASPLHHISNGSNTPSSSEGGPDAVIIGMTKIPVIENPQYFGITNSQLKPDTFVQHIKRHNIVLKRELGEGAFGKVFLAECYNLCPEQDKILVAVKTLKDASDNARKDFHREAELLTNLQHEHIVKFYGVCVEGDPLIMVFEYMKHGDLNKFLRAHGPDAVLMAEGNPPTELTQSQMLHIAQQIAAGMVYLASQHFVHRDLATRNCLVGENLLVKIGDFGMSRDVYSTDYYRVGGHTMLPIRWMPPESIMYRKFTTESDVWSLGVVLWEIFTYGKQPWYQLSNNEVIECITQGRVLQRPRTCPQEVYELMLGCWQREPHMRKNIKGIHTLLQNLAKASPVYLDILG
UniProt Q07817, sequence (whole entry, looked up): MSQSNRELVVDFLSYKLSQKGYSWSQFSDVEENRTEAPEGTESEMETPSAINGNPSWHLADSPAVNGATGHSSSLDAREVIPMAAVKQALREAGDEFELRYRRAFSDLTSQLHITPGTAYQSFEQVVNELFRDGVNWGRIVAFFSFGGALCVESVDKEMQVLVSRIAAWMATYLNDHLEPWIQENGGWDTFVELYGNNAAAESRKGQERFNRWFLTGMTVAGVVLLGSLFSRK
UniProt O75815, sequence (whole entry, looked up): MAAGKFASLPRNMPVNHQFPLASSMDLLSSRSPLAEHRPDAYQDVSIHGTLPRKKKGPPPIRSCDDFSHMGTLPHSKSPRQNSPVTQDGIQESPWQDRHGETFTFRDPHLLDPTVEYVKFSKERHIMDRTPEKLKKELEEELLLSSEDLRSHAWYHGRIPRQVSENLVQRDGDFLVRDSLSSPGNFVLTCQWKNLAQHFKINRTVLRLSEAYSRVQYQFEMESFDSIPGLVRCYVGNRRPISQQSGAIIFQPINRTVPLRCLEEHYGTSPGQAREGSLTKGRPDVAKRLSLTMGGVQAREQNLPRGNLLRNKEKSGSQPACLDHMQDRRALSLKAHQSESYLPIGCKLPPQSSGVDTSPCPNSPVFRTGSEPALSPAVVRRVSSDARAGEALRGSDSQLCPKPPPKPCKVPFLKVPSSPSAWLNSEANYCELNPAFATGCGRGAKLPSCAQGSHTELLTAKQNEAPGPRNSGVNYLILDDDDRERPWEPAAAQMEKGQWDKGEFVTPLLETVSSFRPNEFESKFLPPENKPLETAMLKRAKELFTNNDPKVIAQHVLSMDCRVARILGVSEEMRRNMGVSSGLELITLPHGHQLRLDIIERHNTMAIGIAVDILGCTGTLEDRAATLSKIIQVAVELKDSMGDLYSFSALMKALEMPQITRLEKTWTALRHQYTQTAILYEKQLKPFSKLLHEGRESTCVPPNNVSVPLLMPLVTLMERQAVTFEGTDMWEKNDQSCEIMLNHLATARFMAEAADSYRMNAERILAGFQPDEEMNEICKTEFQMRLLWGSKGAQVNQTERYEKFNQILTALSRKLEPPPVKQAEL
UniProt P02763, sequence (whole entry, looked up): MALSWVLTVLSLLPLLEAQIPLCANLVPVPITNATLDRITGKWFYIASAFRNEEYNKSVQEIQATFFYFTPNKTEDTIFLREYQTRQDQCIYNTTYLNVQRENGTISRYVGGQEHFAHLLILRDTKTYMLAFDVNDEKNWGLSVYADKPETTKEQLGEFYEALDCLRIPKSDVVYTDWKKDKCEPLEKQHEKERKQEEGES

SMILES	target	test	system	setting	Kd
Nc1ncnc2c1ncn2[C@@H]1O[C@H](COP(=O)(O)O)[C@@H](O)[C@H]1O	Thermonuclease, denatured (nuc, Staphylococcus aureus, UniProt P00644)	binding		pH 7	3300 µM
CC(=O)N[C@H]1[C@@H](O[C@H](C)[C@H](NC(=O)[C@H](CO)NC(C)=O)C(=O)N[C@@H](CO)C(=O)NCC(=O)O)O[C@H](CO)[C@H](O)[C@@H]1O	LE1	glycan microarray		4 glycans per BSA	0.055 ± 0.026 µM
O=C(O)CCCN1CC=C(c2ccccc2)CC1	USP51 ZnF-UBD domain				> 1000 µM
C[C@H](NC(=O)[C@@H](NC(=O)[C@H](CO)NC(=O)[C@H](Cc1c[nH]cn1)NC(=O)[C@@H]1CCCN1C(=O)[C@H](CC(=O)O)NC(=O)[C@H](CCC(N)=O)NC(=O)[C@H](Cc1ccc(OP(=O)(O)O)cc1)NC(=O)[C@H](Cc1c[nH]cn1)NC(=O)[C@@H]1CCCN1C(=O)[C@H](CC(=O)O)NC(=O)[C@H](CCCNC(=N)N)NC(=O)[C@H](CO)NC(=O)[C@@H]1CCCN1C(=O)[C@H](C)NC(=O)[C@@H]1CCCN1C(=O)[C@H](CC(N)=O)NC(=O)c1ccc2c(c1)C(=O)OC21c2ccc(N(C)C)cc2Oc2cc(N(C)C)ccc21)[C@@H](C)O)C(=O)N[C@@H](CC(=O)O)C(=O)O	SYK SH2 domains	binding			0.981 µM
CCCCCCCCCC(=O)NC1CCCC1	qscR, DNA-bound (Pseudomonas aeruginosa, UniProt G3XD77)	DNA binding, ligand, EMSA		4 °C, saturating ligand	0.00834 µM
O=C(O)CNC(=O)c1cccnc1	USP51 ZnF-UBD domain				> 1000 µM
O=C(CCCOc1ccc(Cl)cc1)NC1CCOC1=O (stereo not shown)	qscR, ligand-binding domain (Pseudomonas aeruginosa, UniProt G3XD77)	ligand binding, FRET displacement		ligand-binding domain	0.00163 µM
CSCC[C@H](NC(=O)[C@H](Cc1ccc(OP(=O)(O)O)cc1)NC(=O)CNC(=O)CNC(=O)[C@H](CC(=O)O)NC(=O)[C@H](CO)NC(=O)[C@H](CCC(=O)O)NC(=O)CNC(=O)[C@@H](NC(=O)[C@H](CC(C)C)NC(=O)[C@H](CO)NC(=O)c1ccc2c(c1)C(=O)OC21c2ccc(N(C)C)cc2Oc2cc(N(C)C)ccc21)[C@@H](C)O)C(=O)N[C@@H](CC(=O)O)C(=O)N[C@@H](CCSC)C(=O)N[C@@H](CO)C(=O)N[C@@H](CCCCN)C(=O)N[C@@H](CC(=O)O)C(=O)N[C@@H](CCC(=O)O)C(=O)N[C@@H](CC(=O)O)C(=O)O	SYK SH2 domains	binding			0.288 µM
CCS(=O)(=O)N1CC(CC#N)(n2cc(-c3ncnc4[nH]ccc34)cn2)C1	Alpha-1-acid glycoprotein 1 (ORM1, Homo sapiens, UniProt P02763)	binding, fluorescence quenching		308 K	40.5 µM
CC[C@H](C)[C@H](NC(=O)[C@H](CC(=O)O)NC(=O)[C@H](C)NC(=O)[C@H](Cc1ccc(OP(=O)(O)O)cc1)NC(=O)[C@H](CCCCN)NC(=O)[C@@H](NC(=O)[C@H](CC(=O)O)NC(=O)CNC(=O)[C@H](CCCCN)NC(=O)[C@H](CCSC)NC(=O)[C@H](CC(=O)O)NC(=O)[C@H](CC(C)C)NC(=O)[C@H](CCSC)NC(=O)c1ccc2c(c1)C(=O)OC21c2ccc(N(C)C)cc2Oc2cc(N(C)C)ccc21)C(C)C)C(=O)N[C@@H](CCC(=O)O)C(=O)N[C@@H](CO)C(=O)N[C@@H](CO)C(=O)N[C@@H](CC(N)=O)C(=O)N[C@@H](CC(=O)O)C(=O)O	SYK SH2 domains	binding			0.458 µM
CC[C@H](C)[C@H](NC(=O)[C@H](CNC(=O)CCl)NC(C)=O)C(=O)N[C@@H](C)C(=O)N[C@@H](CCC(N)=O)C(=O)N[C@@H](CCC(=O)O)C(=O)N[C@@H](CC(C)C)C(=O)N[C@@H](CCCNC(=N)N)C(=O)N[C@@]1(C)CCC/C=C\CCC[C@@](C)(C(=O)N[C@@H](Cc2ccccc2)C(=O)N[C@@H](CC(N)=O)C(=O)N[C@@H](C)C(=O)N[C@@H](Cc2ccc(O)cc2)C(=O)N[C@@H](Cc2ccc(O)cc2)C(=O)N[C@@H](C)C(=O)N[C@@H](CCCNC(=N)N)C(=O)N[C@@H](CCCNC(=N)N)C(N)=O)NC(=O)[C@H](CC(=O)O)NC(=O)CNC(=O)[C@H]([C@@H](C)CC)NC1=O	Bcl-2-like protein 1 (BCL2L1, Homo sapiens, UniProt Q07817)	isothermal titration calorimetry		25 °C, 10% DMSO	no binding
CN(CC(=O)O)C(=N)NP(=O)(O)O	Creatine kinase U-type, mitochondrial (CKMT1A, Homo sapiens, UniProt P12532, E265Q)	microscale thermophoresis		pH 8.5, added: ADP 1 mM	13 ± 2 µM
CSCC[C@H](NC(=O)CNC(=O)[C@H](Cc1ccccc1)NC(=O)[C@H](CC(=O)O)NC(=O)CNC(=O)c1ccc2c(c1)C(=O)OC21c2ccc(N(C)C)cc2Oc2cc(N(C)C)ccc21)C(=O)N[C@@H](CO)C(=O)N[C@@H](CCCNC(=N)N)C(=O)N[C@@H](CC(=O)O)C(=O)N[C@H](C(=O)N[C@@H](Cc1ccc(OP(=O)(O)O)cc1)C(=O)N[C@@H](CO)C(=O)N[C@H](C(=O)N[C@@H](CC(=O)O)C(=O)N[C@@H](Cc1ccc(O)cc1)C(=O)N[C@@H](Cc1ccc(O)cc1)C(=O)N[C@@H](CCCNC(=N)N)C(=O)N[C@H](C(=O)N[C@@H](CC(=O)O)C(=O)O)C(C)C)[C@@H](C)O)C(C)C	Breast cancer anti-estrogen resistance protein 3, SH2 domain (BCAR3, Homo sapiens, UniProt O75815)	binding			1.69 µM
Nc1ncnc2c1ncn2[C@@H]1O[C@H](CN(CC[C@H](N)C(=O)O)Cc2cn(CCNC(=O)c3ccc4c(c3)C(=O)OC43c4ccc(O)cc4Oc4cc(O)ccc43)nn2)[C@@H](O)[C@H]1O	Genome polyprotein, NS5 methyltransferase domain (GP1, West Nile virus, UniProt Q9Q6P4)	binding			0.28 µM
CCCCCCCCCC(=O)CC(=O)Nc1ccccc1	qscR, DNA-bound dimer (Pseudomonas aeruginosa, UniProt G3XD77)	ligand binding, FRET displacement		protein with DNA	0.283 µM
CCCOC/C(=N\c1ccc(Cl)cc1C(F)(F)F)n1ccnc1	Cytochrome P450 2D6 (CYP2D6, Homo sapiens, UniProt P10635)	binding		20 min, pH 7.4, purified protein, 2% DMSO	7.32 µM
CC[C@H](C)[C@H](NC(=O)[C@H](CC(=O)O)NC(=O)[C@H](Cc1ccccc1)NC(=O)[C@@H](NC(=O)[C@H](CC(N)=O)NC(=O)[C@@H](NC(=O)[C@H](CC(=O)O)NC(=O)c1ccc2c(c1)C(=O)OC21c2ccc(N(C)C)cc2Oc2cc(N(C)C)ccc21)C(C)C)[C@@H](C)O)C(=O)N[C@H](C(=O)N[C@H](C(=O)N[C@@H](Cc1ccc(OP(=O)(O)O)cc1)C(=O)N[C@@H](CC(C)C)C(=O)N[C@@H](CC(C)C)C(=O)N[C@@H](CCC(N)=O)C(=O)NCC(=O)N[C@@H](CCCNC(=N)N)C(=O)N[C@@H](CCCNC(=N)N)C(=O)N[C@@H](CC(C)C)C(=O)N[C@@H](CC(=O)O)C(=O)O)C(C)C)[C@@H](C)O	SYK SH2 domains	binding			0.162 µM
N=C(N)NCCC[C@H](N)C(=O)O	uncharacterized protein (Pelagibacter ubique, UniProt Q4FLC2)	binding, isothermal titration calorimetry	Candidatus Pelagibacter ubique	two-sets-of-sites model, site 1, added: E108A mutant competing protein	3.24e-05 µM and 1.89e-05 µM and 3.68e-05 µM
CSCC[C@H](NC(=O)[C@H](CC(C)C)NC(=O)[C@H](C)NC(=O)[C@H](CCCNC(=N)N)NC(=O)[C@H](Cc1ccc(OP(=O)(O)O)cc1)NC(=O)[C@H](Cc1ccccc1)NC(=O)[C@H](CC(N)=O)NC(=O)[C@H](CO)NC(=O)[C@H](CC(=O)O)NC(=O)[C@@H](NC(=O)[C@@H]1CCCN1C(=O)[C@H](CO)NC(=O)[C@@H]1CCCN1C(=O)[C@H](CC(C)C)NC(=O)c1ccc2c(c1)C(=O)OC21c2ccc(N(C)C)cc2Oc2cc(N(C)C)ccc21)[C@@H](C)O)C(=O)N[C@@H](CC(=O)O)C(=O)N[C@@H](CCC(=O)O)C(=O)N[C@@H](CCC(=O)O)C(=O)N[C@@H](CC(=O)O)C(=O)O	SYK SH2 domains	binding			0.905 µM
CC(=O)N[C@H]1[C@@H](OC[C@H](NC(=O)[C@H](CO)NC(C)=O)C(=O)N[C@@H](CO)C(=O)NCC(=O)O)O[C@H](CO)[C@H](O)[C@@H]1O	LE1	glycan microarray		4 glycans per BSA	0.054 ± 0.031 µM
Nc1ncnc2c1ncn2[C@@H]1O[C@H](COP(=O)(O)OP(=O)(O)OP(=O)(O)O)[C@@H](O)[C@H]1O	matB (Rhodopseudomonas palustris, UniProt Q6ND88, C106A/K488A/Q457C/R286C)	binding		pH 7.0, 200 mM NaCl	19 ± 1 µM
Nc1nc2c(ncn2[C@@H]2O[C@H](COP(=O)(O)OP(=O)(O)OP(=O)(O)O)[C@@H](O)[C@H]2O)c(=O)[nH]1	GTP 3',8-cyclase (moaA, Staphylococcus aureus, UniProt P69848, R17K)	binding, isothermal titration calorimetry		25 °C, R17K mutant, anaerobic	0.68 ± 0.28 µM
CC[C@H](CO)Nc1nc(NCc2ccc(-c3ccccn3)cc2)c2ncn(C(C)C)c2n1	Casein kinase I isoform epsilon (CSNK1E, Homo sapiens, UniProt P49674)	binding, competition affinity chromatography	SH-SY5Y cell extract		5.73 µM
CC(=O)N[C@H]1[C@@H](O[C@H](C)[C@H](NC(C)=O)C(=O)N[C@H](C(=O)N[C@H](C(=O)NCC(=O)O)[C@@H](C)O[C@H]2O[C@H](CO)[C@H](O)[C@H](O)[C@H]2NC(C)=O)[C@@H](C)O[C@H]2O[C@H](CO)[C@H](O)[C@H](O)[C@H]2NC(C)=O)O[C@H](CO)[C@H](O)[C@@H]1O	Vicia villosa lectin	glycan microarray		5 glycans per BSA	0.0013 ± 0.0002 µM
Nc1ncnc2c1ncn2[C@@H]1O[C@@H]2COP(=O)(O)OP(=O)(O)OC[C@H]3O[C@@H](O[C@@H]1[C@@H]2O)[C@H](O)[C@@H]3O	Thoeris anti-defense 1 (tad1, Bacillus phage SBSphiJ7, UniProt P0DW57)	binding, ITC			0.284 µM
COc1cc(O)cc(/C=C/c2ccc(O)cc2)c1	O-methyltransferase (Sorghum bicolor, UniProt A0A1B6PFV1)	binding		added: saturating S-adenosylhomocysteine	0.129 ± 0.0346 µM
CSCC[C@H](NC(=O)[C@H](CC(=O)O)NC(=O)c1ccc2c(c1)C(=O)OC21c2ccc(N(C)C)cc2Oc2cc(N(C)C)ccc21)C(=O)N[C@@H](CO)C(=O)N[C@@H](CCCCN)C(=O)N[C@@H](CC(=O)O)C(=O)N[C@@H](CCC(=O)O)C(=O)N[C@@H](CO)C(=O)N[C@H](C(=O)N[C@@H](CC(=O)O)C(=O)N[C@@H](Cc1ccc(OP(=O)(O)O)cc1)C(=O)N[C@H](C(=O)N1CCC[C@H]1C(=O)N[C@@H](CCSC)C(=O)N[C@@H](CC(C)C)C(=O)N[C@@H](CC(=O)O)C(=O)N[C@@H](CCSC)C(=O)N[C@@H](CCCCN)C(=O)N[C@@H](CC(=O)O)C(=O)O)C(C)C)C(C)C	Tensin-3, SH2 domain (TNS3, Homo sapiens, UniProt Q68CZ2)	binding			0.34 µM
O=c1cc(-c2ccc(O)cc2)oc2cc(O)cc(O)c12	BDNF/NT-3 growth factors receptor (NTRK2, Homo sapiens, UniProt Q16620)	binding, tryptophan fluorescence quenching		extracellular domain	0.0098 ± 0.0063 µM

Excerpt of the above:
SMILES	target	test	system	setting	Kd
CC[C@H](CO)Nc1nc(NCc2ccc(-c3ccccn3)cc2)c2ncn(C(C)C)c2n1	Casein kinase I isoform epsilon (CSNK1E, Homo sapiens, UniProt P49674)	binding, competition affinity chromatography	SH-SY5Y cell extract		5.73 µM
CSCC[C@H](NC(=O)[C@H](Cc1ccc(OP(=O)(O)O)cc1)NC(=O)CNC(=O)CNC(=O)[C@H](CC(=O)O)NC(=O)[C@H](CO)NC(=O)[C@H](CCC(=O)O)NC(=O)CNC(=O)[C@@H](NC(=O)[C@H](CC(C)C)NC(=O)[C@H](CO)NC(=O)c1ccc2c(c1)C(=O)OC21c2ccc(N(C)C)cc2Oc2cc(N(C)C)ccc21)[C@@H](C)O)C(=O)N[C@@H](CC(=O)O)C(=O)N[C@@H](CCSC)C(=O)N[C@@H](CO)C(=O)N[C@@H](CCCCN)C(=O)N[C@@H](CC(=O)O)C(=O)N[C@@H](CCC(=O)O)C(=O)N[C@@H](CC(=O)O)C(=O)O	SYK SH2 domains	binding			0.288 µM
Nc1ncnc2c1ncn2[C@@H]1O[C@@H]2COP(=O)(O)OP(=O)(O)OC[C@H]3O[C@@H](O[C@@H]1[C@@H]2O)[C@H](O)[C@@H]3O	Thoeris anti-defense 1 (tad1, Bacillus phage SBSphiJ7, UniProt P0DW57)	binding, ITC			0.284 µM
CCCOC/C(=N\c1ccc(Cl)cc1C(F)(F)F)n1ccnc1	Cytochrome P450 2D6 (CYP2D6, Homo sapiens, UniProt P10635)	binding		20 min, pH 7.4, purified protein, 2% DMSO	7.32 µM
